Measurements from different studies.
Lines come from different studies, so protocols differ. “And” joins repeats or separate records; there may be more than shown. Numbers after ± are the reported error.

The Vss of `CN1CCN(c2ccc(Nc3ncc4cc(C#N)c(=O)n(C5CCCC5)c4n3)cc2)CC1` is reported as 7.08 L/kg (NIH Swiss nude mice, intracerebral U87 tumour, plasma; intravenous, 25 mg/kg, together with: gefitinib 200 mg/kg oral 1 h before).
For `acyl ghrelin (human)`, the tissue/serum ratio was 6.8 µL/g (Ghsr knockout mice, pons and medulla; intravenous, dose not given, 10 min, vascular space corrected).
For `CCCSc1ccc2nc(NC(=O)OC)[nH]c2c1`, the thermodynamic solubility was 2.09 ± 0.12 mg/g (shake-flask; polysorbate 80; 37 °C).
The Papp A→B of `O=c1cc(-c2ccc(O)cc2)oc2c([C@@H]3O[C@H](CO)[C@@H](O)[C@H](O)[C@H]3O)c(O)cc(O)c12` is reported as 28.5 ×10⁻⁶ cm/s (mass spectrometry; Caco-2; 40 µM, 6 h).
With `CCOC(=O)C1=C(C)NC(C)=C(C(=O)OC)C1c1cccc(Cl)c1Cl` (stereo not drawn) the thermodynamic solubility was 45.2 ± 4.36 mg/g (shake-flask; polysorbate 80; 37 °C).
For `RWRTNF`, the peptide cleavage was > 90% and > 80% (substrate, gel electrophoresis; peptide, mouse, PyMT tumour, PyMT tumour tissue extract; 5 µM, 16 h, 37 °C, 2% extract, 1 mM ZnCl2).
The AUC(0-10 h) of `O=C(c1cc(Cc2n[nH]c(=O)c3ccccc23)ccc1F)N1CCN(C(=O)C2CC2)CC1` is reported as 35200 ± 17100 ng·h/mL (human patients, plasma; oral, 400 mg twice daily, day 2, together with: pegylated liposomal doxorubicin).
Under “share of tissue radioactivity”, `O=c1cc[nH]c(=O)[nH]1` is recorded as 67.8% (male CD-1 mice, small intestine without content; intravenous, 1 mg/kg, 1 h).
`N[C@@H](CC(=O)N1CCn2c(nnc2C(F)(F)F)C1)Cc1cc(F)c(F)cc1F` has an AUC(0-2 h) of 633 ng·h/mL (healthy Korean subjects, plasma; oral, 100 mg single dose, ABCB1 G2677T/A AA).
The tissue uptake of `CCCC[C@@H]1NC(=O)[C@@H](NC(=O)[C@H](CCC(=O)O)NC(=O)CNC(=O)CN2CCN(CC(=O)O)CCN(CC(=O)O)CCN(CC(=O)O)CC2)CCCCNC(=O)C[C@@H](C(N)=O)NC(=O)[C@H](C(C)C)NC(=O)[C@@H]2CCCN2C(=O)[C@H](CCCNC(=N)N)NC(=O)CNC(=O)[C@H](Cc2c[nH]c3ccccc23)NC(=O)[C@H](CCCNC(=N)N)NC(=O)[C@@H](Cc2ccccc2)NC(=O)[C@H](Cc2c[nH]cn2)NC(=O)[C@H](CCC(=O)O)NC1=O` [indium-111 labelled] is reported as 0.13 ± 0.02 %ID/g (C57 mice, B16/F10 lung metastatic melanoma, liver; intravenous, 0.037 MBq, 24 h).
With `COc1cc(F)c(F)c(Nc2ccc(I)cc2F)c1NS(=O)(=O)C1(C[C@H](O)CO)CC1` the AUC(0-8 h) was 3300 ng·h/mL (human patients, plasma; oral, 30 mg twice daily, cycle 1 day 14).
For `C[C@@H]1CCN(C(=O)CC#N)C[C@@H]1N(C)c1ncnc2[nH]ccc12`, “urinary excretion unchanged” read 23.3% (Japanese human subjects, urine; 15 mg twice daily, 12 h, steady state).
`COc1ccc(Cl)cc1C(=O)NCCc1ccc(S(=O)(=O)NC(=O)NC2CCCCC2)cc1` has a thermodynamic solubility of 0.06 ± 0.01 mg/g (shake-flask; Captex 355; 37 °C).
`O=[N+]([O-])c1ccc(CNc2nc(NCc3cccc(C(F)(F)F)c3)nc3[nH]cnc23)cc1` gave a tissue concentration of 10 to 25 µM (chow-fed mice, liver, muscle, adipose tissue; intraperitoneal, 20 mg/kg, 6 h).
The AUC(0-72 h) of `CC(C)NC[C@@H](C(=O)N1CCN(c2ncnc3c2[C@H](C)C[C@H]3O)CC1)c1ccc(Cl)cc1` is reported as 627 ng·h/mL (human, Severe hepatic function, plasma; oral, 100 mg single dose, NCI classification, geometric mean).
The thermodynamic solubility of `COc1ccc2c(c1)c(CC(=O)O)c(C)n2C(=O)c1ccc(Cl)cc1` is reported as 116 ± 8.33 mg/g (shake-flask; polysorbate 80; 37 °C).
`C/C=C/C=C/C=C\CC/C=C/C(=O)NCC(C)(C)O` gave a recovery of 0.02% (rat, small intestine site 4 contents; oral, dose not given, 2 h, β-glucuronidase treated; baseline: ingested amount).
For `CCn1c(C(=O)c2cc(C)cc(C#N)c2)c(C(C)C)c(=O)[nH]c1=O`, “Cmax at steady state” read 1100 ± 489 ng/mL (healthy humans, plasma; oral, 600 mg once daily, 7 days).
For `COc1c(N2C[C@@H]3CCCN[C@@H]3C2)c(F)cc2c(=O)c(C(=O)O)cn(C3CC3)c12`, the QTc change was 18.3 ± 4.4% (male Hartley guinea pig, anaesthetized; intravenous infusion, 10 mg/kg, 10 min infusion; baseline: baseline).
`CS(=O)(=O)OC[C@H](O)[C@@H](O)COS(C)(=O)=O` gave a concentration of 74 µM (Wistar rat, female, red blood cell lysate; intraperitoneal, 500 mg/kg, 4 h).
`CCCC[C@H](NC(C)=O)C(=O)N[C@H]1CCC(=O)NC[C@@H](C(=O)N[C@@H](Cc2c[nH]c3ccccc23)C(N)=O)NC(=O)[C@H](CCCNC(=N)N)NC(=O)[C@@H](Cc2ccccc2)NC(=O)[C@H](Cc2c[nH]cn2)NC1=O` has a Vd/F of 261 L (healthy human, both sexes, plasma; subcutaneous, 3.0 mg once daily, day 1, median).
`CNC(=O)c1cc(Oc2ccc(NC(=O)Nc3ccc(Cl)c(C(F)(F)F)c3)cc2)ccn1` has a total clearance of 235 mL/min (population PK model; human, AML patients; oral, typical at 80 kg).
`CCOc1ccc(Cc2cc([C@]34OC[C@](CO)(O3)[C@@H](O)[C@H](O)[C@H]4O)ccc2Cl)cc1`: “urinary excretion unchanged” 0.821% (healthy human, normal renal function, urine; oral, 15 mg, 0-96 h; baseline: dose).
Under tissue concentration, `COC(=O)C[C@](O)(CCCC(C)(C)O)C(=O)O[C@@H]1C(OC)=C[C@]23CCCN2CCc2cc4c(cc2[C@H]13)OCO4` is recorded as “not detected” (CD1 mice, esophagus; oral, 1 mg/kg, 24 h).
`Cc1ccc(N2C(=O)c3ccccc3NC23C(=O)N(C)c2ccc([N+](=O)[O-])cc23)cc1` (stereo not drawn) gave a logD of 2.7 (shake flask; aqueous buffer; pH 7.4).
`CCN(c1cc(C#CCN2CCOCC2)cc(C(=O)NCc2c(C)cc(C)[nH]c2=O)c1C)[C@H]1CC[C@H](N(C)CCOC)CC1`: “scaled intrinsic clearance” 6 ± 0.5 mL/min/kg (human liver microsomes; well-stirred model).
With `CCCOc1ccc([C@H]2CNC(=O)N2c2ccc3[nH]cnc3c2)cc1` the effective half-life was 157 min (non-elderly adults, fasted, plasma; oral, 50 mg twice daily, day 11, 2 to 12 h postdose, oral solution, geometric mean).
The thermodynamic solubility of `COc1ccc2c(c1OC)C(=O)O[C@@H]2[C@H]1c2c(cc3c(c2OC)OCO3)CCN1C` is reported as 14.3 ± 0.91 mg/g (shake-flask; polysorbate 80; 37 °C).
For `O=C(O)C[C@H](O)C[C@H](O)/C=C/c1c(C2CC2)nc2ccccc2c1-c1ccc(F)cc1`, the AUC(0-27 h) was 15.9 µM·h (male Sprague Dawley rat, NASH, plasma; oral, 2.5 mg/kg, geometric mean, together with: silymarin 500 mg/kg oral).
`CC(C)=CCc1c(O)cc2oc3c(CC=C(C)C)c(O)c(O)c(CC=C(C)C)c3c(=O)c2c1O`: “free tumour concentration” 90 ± 30 ng/g (Balb/c nu/nu mice, HT-29 xenograft, tumour tissue; oral, 901 mg/kg xanthones in diet, 2 weeks after implantation).
With `Oc1ccc(C(c2ccc(O)cc2)(C(F)(F)F)C(F)(F)F)cc1` the alpha half-life was 85.8 min (refers to: free compound; Hsd:Sprague Dawley rat male, plasma; oral gavage, 340 mg/kg single dose).
For `CC[C@H](C)[C@H](NC(=O)[C@H](CC(C)C)NC(=O)[C@H](Cc1c[nH]c2ccccc12)NC(=O)[C@H](C)NC(=O)[C@@H](NC(=O)[C@H](Cc1ccccc1)NC(=O)[C@H](CC(=O)O)NC(=O)[C@H](CCCNC(=N)N)NC(=O)[C@H](C)NC(=O)[C@H](C)NC(=O)[C@H](CC(C)C)NC(=O)[C@H](C)NC(=O)[C@H](CC(=O)O)NC(=O)[C@H](CC(C)C)NC(=O)[C@@H](NC(=O)[C@@H](NC(=O)[C@H](C)NC(=O)[C@H](CC(C)C)NC(=O)[C@H](CCC(=O)O)NC(=O)[C@H](CO)NC(=O)[C@H](CO)NC(=O)[C@H](Cc1ccccc1)NC(=O)[C@@H](NC(=O)CNC(=O)[C@H](CCC(=O)O)NC(=O)CNC(=O)[C@@H](N)Cc1cnc[nH]1)[C@@H](C)O)[C@@H](C)O)[C@@H](C)CC)[C@@H](C)CC)C(=O)N[C@@H](C)C(=O)N[C@H](C(=O)N[C@@H](CCCCN)C(=O)N[C@H](C(=O)N[C@H](C(=O)N[C@@H](CC(=O)O)C(=O)N[C@@H](CCCCN)C(=O)N[C@@H](CCCCN)C(=O)N[C@@H](CCCCN)C(=O)N[C@@H](CCCCN)C(=O)N[C@@H](CCCCN)C(=O)N[C@@H](CCCCN)C(N)=O)[C@@H](C)O)[C@@H](C)CC)[C@@H](C)O`, the AUClast was 37.1 nM·h (immunoaffinity LC-MS/MS; healthy human subjects, plasma; intravenous infusion, 1 mg single dose, infused over 15 min).
With `CS(=O)(=O)n1cc2c(n1)CN([C@H]1CO[C@H](c3cc(F)ccc3F)[C@@H](N)C1)C2` the renal clearance was 38.3 mL/min (male human, urine; oral, 12.5 mg, single dose, fasted, healthy volunteers).
With `CC[C@H](C)[C@H](NC(=O)[C@H](Cc1ccccc1)NC(=O)[C@H](CCC(=O)O)NC(=O)[C@H](CCCCNC(=O)COCCOCCNC(=O)COCCOCCNC(=O)CC[C@H](NC(=O)CCCCCCCCCCCCCCCCC(=O)O)C(=O)O)NC(=O)[C@H](C)NC(=O)[C@H](C)NC(=O)[C@H](CCC(N)=O)NC(=O)CNC(=O)[C@H](CCC(=O)O)NC(=O)[C@H](CC(C)C)NC(=O)[C@H](Cc1ccc(O)cc1)NC(=O)[C@H](CO)NC(=O)[C@H](CO)NC(=O)[C@@H](NC(=O)[C@H](CC(=O)O)NC(=O)[C@H](CO)NC(=O)[C@@H](NC(=O)[C@H](Cc1ccccc1)NC(=O)[C@@H](NC(=O)CNC(=O)[C@H](CCC(=O)O)NC(=O)C(C)(C)NC(=O)[C@@H](N)Cc1cnc[nH]1)[C@@H](C)O)[C@@H](C)O)C(C)C)C(=O)N[C@@H](C)C(=O)N[C@@H](Cc1c[nH]c2ccccc12)C(=O)N[C@@H](CC(C)C)C(=O)N[C@H](C(=O)N[C@@H](CCCNC(=N)N)C(=O)NCC(=O)N[C@@H](CCCNC(=N)N)C(=O)NCC(=O)O)C(C)C` the Cmax ratio was 2.13 (healthy Caucasian subjects, plasma; subcutaneous, steady state, once weekly; baseline: 1.0 mg over 0.5 mg).
`CC(C)(Oc1ccc(CCNC(=O)c2ccc(Cl)cc2)cc1)C(=O)O` has a thermodynamic solubility of 31.8 ± 1.2 mg/g (shake-flask; polysorbate 80; 37 °C).
`Cc1cc(-c2cc(OC(=O)c3ccccc3)ccc2Cl)cc2nnc(Nc3ccc(OCCN4CCCC4)cc3)nc12` has a tissue concentration of 0.609 µM (Dutch Belted rabbit, conjunctiva; topical ocular, 40 µL drop of 0.6%, 2 h).

Repeated from above:
For `O=C(O)C[C@H](O)C[C@H](O)/C=C/c1c(C2CC2)nc2ccccc2c1-c1ccc(F)cc1`, the AUC(0-27 h) was 15.9 µM·h (male Sprague Dawley rat, NASH, plasma; oral, 2.5 mg/kg, geometric mean, together with: silymarin 500 mg/kg oral).
For `acyl ghrelin (human)`, the tissue/serum ratio was 6.8 µL/g (Ghsr knockout mice, pons and medulla; intravenous, dose not given, 10 min, vascular space corrected).
For `COc1c(N2C[C@@H]3CCCN[C@@H]3C2)c(F)cc2c(=O)c(C(=O)O)cn(C3CC3)c12`, the QTc change was 18.3 ± 4.4% (male Hartley guinea pig, anaesthetized; intravenous infusion, 10 mg/kg, 10 min infusion; baseline: baseline).
The Papp A→B of `O=c1cc(-c2ccc(O)cc2)oc2c([C@@H]3O[C@H](CO)[C@@H](O)[C@H](O)[C@H]3O)c(O)cc(O)c12` is reported as 28.5 ×10⁻⁶ cm/s (mass spectrometry; Caco-2; 40 µM, 6 h).
With `COc1cc(F)c(F)c(Nc2ccc(I)cc2F)c1NS(=O)(=O)C1(C[C@H](O)CO)CC1` the AUC(0-8 h) was 3300 ng·h/mL (human patients, plasma; oral, 30 mg twice daily, cycle 1 day 14).
